Experimental data pooled from the literature.
Each line is one published result; not all experiments were run side by side. ± marks the error that the study gave.
Chain of UniProt P51659 (whole entry, looked up): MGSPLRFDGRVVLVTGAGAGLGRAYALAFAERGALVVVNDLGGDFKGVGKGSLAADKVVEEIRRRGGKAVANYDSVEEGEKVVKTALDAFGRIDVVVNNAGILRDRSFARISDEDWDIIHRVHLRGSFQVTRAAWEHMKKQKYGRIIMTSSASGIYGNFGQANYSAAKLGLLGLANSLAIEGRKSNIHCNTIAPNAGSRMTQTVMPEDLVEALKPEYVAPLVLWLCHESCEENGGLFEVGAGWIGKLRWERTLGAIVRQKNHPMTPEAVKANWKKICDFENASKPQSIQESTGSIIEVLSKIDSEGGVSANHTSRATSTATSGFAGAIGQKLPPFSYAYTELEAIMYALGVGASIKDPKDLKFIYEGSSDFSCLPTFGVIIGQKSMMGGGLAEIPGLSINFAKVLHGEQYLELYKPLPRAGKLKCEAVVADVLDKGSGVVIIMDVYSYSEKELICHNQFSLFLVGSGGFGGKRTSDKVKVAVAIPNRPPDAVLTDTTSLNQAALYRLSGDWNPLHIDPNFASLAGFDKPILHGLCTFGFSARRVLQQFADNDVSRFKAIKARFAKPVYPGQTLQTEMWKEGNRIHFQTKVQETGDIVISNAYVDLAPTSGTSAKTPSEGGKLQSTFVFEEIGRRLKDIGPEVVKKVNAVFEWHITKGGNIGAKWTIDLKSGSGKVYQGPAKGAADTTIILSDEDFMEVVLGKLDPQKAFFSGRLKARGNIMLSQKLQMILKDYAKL

SMILES | target or system | test | test system | conditions | scale | measurement | result
COC(=O)c1c(-c2cc(OC)c(OC)c(OC)c2)c2ccc(OCc3ccccn3)cc2c(=O)n1-c1ccc(N)cc1 | Plasmodium falciparum |  | Dd2 |  |  | IC50 | 2510 nM
CN1CCN(C2(CNC3CCN(c4cccc(-c5cc6cc(F)ccc6[nH]5)c4)CC3)CCC2)CC1 | SK-OV-3 |  |  |  |  | GI50 | 1840 nM
Nc1ncc(-c2nc(N3CCOCC3)nc(N3CCOCC3)n2)c(C(F)F)n1 | A204 |  |  | 72 h |  | GI50 | 22 nM
COc1ccc2c(c1)[nH]c1c(C)nccc12 | DU-145 | bisulfite pyrosequencing, measured: RASSF1A promoter CpG site 5 |  | concentration not given | relative to: vehicle | methylation reduction | 0%
COc1cc(CCC[P+](c2ccccc2)(c2ccccc2)c2ccccc2)c(OC)c2c1OCO2.[I-] | IGROV-1 | SRB |  |  |  | TGI | -4.93 log M
C[C@H]1CN(c2n[nH]c3nc(N[C@H]4CC[C@H](NS(=O)(=O)CCC(F)(F)F)CC4)ncc23)CCO1 | HSD17B4 (Homo sapiens, UniProt P51659) | inhibitor, Kinobeads competition profiling |  | 20 µM | relative to: vehicle | relative abundance | 1.12
CC1(C(=O)O)C2CCC(O2)C1(C)C(=O)O (centres unmarked) | Plasmodium falciparum |  | HB3 |  |  | IC50 | 2510 nM
COc1c(C)c2c(c(O)c1C/C=C(\C)CCC(=O)O)C(=O)OC2 | A204 | cell proliferation | muscle cancer |  |  | IC50 | 1740 nM
COc1c(CCC[P+](c2ccccc2)(c2ccccc2)c2ccccc2)cc2c(c1OC)OCO2.[I-] | SNB-75 | SRB |  |  |  | LC50 | -4.56 log M
O=S(=O)(c1ccc(O)cc1)c1ccc(O)cc1 | HepG2 spheroids | Hoechst flow cytometry |  | 0.1 µM, 24 h |  | G1 phase cells | 69.7 ± 6.74%
Nc1ncnc2c1ncn2[C@@H]1O[C@@H]2COP(=O)(O)O[C@H]3[C@@H](O)[C@H](n4cnc5c(=O)[nH]cnc54)O[C@@H]3COP(=O)(O)O[C@H]2[C@H]1O | HFF-1 | RNA sequencing, measured: Signaling by Rho GTPases |  | downregulated pathway | relative to: Zika virus alone | pathway fold enrichment | 2.23

A few entries again:
SMILES | target or system | test | test system | conditions | scale | measurement | result
COC(=O)c1c(-c2cc(OC)c(OC)c(OC)c2)c2ccc(OCc3ccccn3)cc2c(=O)n1-c1ccc(N)cc1 | Plasmodium falciparum |  | Dd2 |  |  | IC50 | 2510 nM
